Published values pooled from the literature.
A part holds a random share of what one study measured.

Series 1
Target: RNA binding protein fox-1 homolog 2, RRM domain, GST-SBP tag (RBFOX2, Homo sapiens, UniProt O43251-10, residues 100-194)
Method: RNA Bind-n-Seq
Form: RNA
Matrix: in vitro
Tested at: 365 nM
Notes: natural RNA segment, single round, ends assumed
Reference: no-protein control
Reading: higher = stronger binding
Shared flanks, not repeated: GGGAGUUCUACAGUCCGACGAUC … UGGAAUUCUCGGGUGCCAA
Residues (chain): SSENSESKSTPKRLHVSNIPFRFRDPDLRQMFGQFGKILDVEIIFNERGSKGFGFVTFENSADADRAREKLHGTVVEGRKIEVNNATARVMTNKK
Oligonucleotide | RBNS enrichment (R)
CUUCCCUGCCUCCAGGUCAGGGAGCAGCUGCAGUGAGGGUGGGGAGGUGAGGGCUUUGUACACGUGUGUCCUCUGCUGUCAUGAACUUGGGCUGGACUGUGAGCAGCUCU | 0.852
AUACUGACUGCUAAGUGUACUAUACUGUUUGCUUUACUAAUCACCUAAUUCAUUGCAGUUCAUACUUAUUGACUCAGAGUUUAAAACCACAAUCUGUAGGCUUUAAGAAU | 0.423
AGUGGUGUAUUCACAGCUGCUCCUUCUCUGAAUGAAAGAGUGUAGGGACACCUGCCACCAUGGCCAGACCCUGACUGAAUUUCACAUUAAGGCUUUGGAAAGGAGCAAAU | 0.382
GAAGUUCAUGGUGAUCAGUGCAAUUGACCUUCUCCCUCACUCCUGCCAGUUGAAAAUGGAUUUUUAAAUUAUACUGUAGCUGAUGAAACUCCUGAUUUUGUAGUUAAUUU | 2.21
GCCAUGCCCCCAGCACCUUGCACAUAGGUGUCUGAUAAAAGUUUAAGAAAGUAAACACUUUUUGAGCACCAAAUAUAUAUAGGGCAUUGUUCUGGUGGGUGUGUCACGCU | 0.418
UCUCACAGAGCUUUAAAUUAUUCUCCUAAGUUUCUUGUGGAUGAAGCGCUCUCAUCUAACCUAUGUUGGGUUGUGCCACCACGUCUGUACCAGAUGUCCCAUCCGGCAUC | 0.288
GUGGGGGUCUCCCUACCUACGACUGAGGGCUUUUUAAACUUGGUGCGAAGUUGAACUUUUUUAAGGGGAUAAAAUAAAGAGAAUACAGUUUGACUUUUUGGAAUUUAACA | 0.544
GGUGCUGGGUAUGGAACCCAGGGCUUUGUGCAUGCUAGGCGAGCACUUACCAACUGAGCUACAUCCCCAAUCCCACUACAGCCCAUUUUAAAACCAUCUUGAAAGAACCC | 0.642
AUUUCCACUGCUCGGGCGCUCCAGUGGCCCCGCUGCAGUGAGAGCUGCGCCUGGUUUCGCCGGACAGAGUUGGUGUUUGGAGCCCAGCCGCCCUCGGGCGCACGGCCUGC | 0.55
AGCAUUUUCUUUAUCUCCGGAUAGCCAUUUCCUGGACUUUUGAACUUCCCAUCUUCUAUGCUUAUGUCCCACUGUGCCUGCUCCCCCAUCCUCUUUCUUGUAGCCUUUUG | 6.79
CUGAUGUUGUGCACGUCAAUCACCGGGCACUUGCAUACUCUUAGAAACAGUUCGACUUCGGUUACUGCCUUCUCCCUUGAAAUCCUUGCUGCGUGCCCACCAGGAUUUCC | 0.625
UGGCAGAUUUGGGGCGCCAACCUGAUUUUAUGGAUUUUGAGUUAGAUUCUCUACCCUCUAUCAAUACUAAAAAUAGAUUAGGAGGGUUUUUUUUUCUGUUUAUCAUGUUG | 0.332

Series 2
Target: Ras GTPase-activating protein-binding protein 1, C-terminal RGG region (G3BP1, Homo sapiens, UniProt Q13283)
UniProt Q13283, sequence (whole entry, looked up): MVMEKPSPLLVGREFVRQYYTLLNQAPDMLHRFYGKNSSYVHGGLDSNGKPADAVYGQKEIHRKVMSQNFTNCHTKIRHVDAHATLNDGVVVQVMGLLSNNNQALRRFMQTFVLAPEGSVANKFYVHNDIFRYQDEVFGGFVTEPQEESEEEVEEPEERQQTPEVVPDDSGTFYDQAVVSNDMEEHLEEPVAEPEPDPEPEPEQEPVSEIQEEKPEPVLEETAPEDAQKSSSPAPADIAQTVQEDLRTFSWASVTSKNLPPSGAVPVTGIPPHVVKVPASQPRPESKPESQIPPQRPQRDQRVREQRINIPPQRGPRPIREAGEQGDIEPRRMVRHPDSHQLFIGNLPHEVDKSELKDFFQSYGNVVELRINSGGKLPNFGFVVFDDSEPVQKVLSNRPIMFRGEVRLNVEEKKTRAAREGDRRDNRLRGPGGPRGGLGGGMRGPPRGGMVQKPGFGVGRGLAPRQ
Method: RNA Bind-n-Seq
Form: RNA
Matrix: in vitro
Tested at: 1 µM
Notes: whole 134-nt RNA, ends assumed
With: 150 mM KCl
Reference: input library
Reading: higher = stronger binding
Shared flanks, not repeated: GGGAGUUCUACAGUCCGACGAUC … UGGAAUUCUCGGGUGUCAAGG
Oligonucleotide | log2 enrichment
GUGCUACACAUCGUAUGUACCGAAUCGGGGUUUUUUUGGGGAAAAAAAGGGGUUUUUUUGGGGAAAGUAUUAUGUUACGCCGUUCGGAUC | 0.657
CCUCAAGUCCUGUGCUACACAUCGUAUGUACCGAAUCGGGGUGGUGGGGUGGAAAGUAUUAUGUUACGCCGUUCGGAUCUGCACUUCCAG | -0.233
UAACUUUAGAGGAGGAUCUGAUGGAUAUGGCAGUGGACGUGGAUUUGGGGAUGGCUAUAAUGGAUAUGGAGGAGGACCUGGAGGUGGCAA | -0.746
CUCAAGUCCUGUGCUACACAUCGUAUGUACCGAAUCGGGGAGGGAGGGGAGGGGAAAGUAUUAUGUUACGCCGUUCGGAUCUGCACUUCC | 2.62
CCUCAAGUCCUGUGCUACACAUCGUAUGUACCGAAUCGGGGUGGGGUGGUGGGAAAGUAUUAUGUUACGCCGUUCGGAUCUGCACUUCCA | 0.658
AAGUCCUGUGCUACACAUCGUAUGUACCGAAUCGGUUUUUGGAAAAAAAGGAAAGGAAAGUAUUAUGUUACGCCGUUCGGAUCUGCACUU | -2.21
UGGCCCUGGUGGCAUGCGGGGAGGAAGAUGUGGCCUCAUGGAUCGUGGUGGUCCCGGUGGAAUGUUCAGAGGUGGCCGUGGUGGAGACAG | 1.89
CUGUGCUACACAUCGUAUGUACCGAAUCGGGGUUUUUGGGGUUUUUUUGGGGAAAAAGGGGAAAGUAUUAUGUUACGCCGUUCGGAUCUG | -0.164
GUCCUGUGCUACACAUCGUAUGUACCGAAUCGGAAAAAAAGGAAAAAGGAAAAAAAGGAAAGUAUUAUGUUACGCCGUUCGGAUCUGCAC | -1.51
UAACUUUAGAGGAGGAUCUGAUGGAUAUGGCAGUGGACGUGGAUGUGGGGAUGGCUAUAAUGGGUAUGGAGGAGGACCUGGAGGUGGCAA | -1.31
CACAGACAACACGCACCCACACAGACACAGGGGGAAGGGGUUGGGAUGGGGACAGGGUGCACAGCAGGGCGGGGUAGGACCCCAGCCCCU | -0.219
CACAGACAACACGCACCCACACAGACACAGAGGGAAGGGGUUGGGAUGGGGACAGGGUGCACAGCAGGGAGGGGUAGGACCCCAGCCCCU | -0.864
UGGGAGGUGGAUUUUGUUUAUUUUUUUAGCUCAUUUCCAGGGGUGGGAAUUUUUUUUUAAUAUGUCUCAUGAAUAAAGUUGUUUUUGAAA | 2.54
CACAGACAACACGCACCCACACAGACACAGAGGGAAGGGGUUGGGAUGGGGAGAGGGUGCACAGCAGGGCGGGGUAGGACCCCAGCCCCU | 0.227

Series 3
Target: Interferon regulatory factor 7, full length, phosphomimetic (IRF7, Homo sapiens, UniProt Q92985, residues 1-503, S101K/S471D/S472D/S475D/S476D/S477D/S483D/S484D/S487D)
Method: protein-binding microarray
Form: double-stranded DNA, one strand shown
Matrix: in vitro
Tested at: 250 nM
Notes: 60-bp whole probe
With: salmon DNA 0.4 mg/ml
Reference: random background probes
Reading: higher = stronger binding
Shared flanks, not repeated: GCCTAGCAC … GTCTTGATTCGCTTGACGCTGCTG
Target sequence (chain): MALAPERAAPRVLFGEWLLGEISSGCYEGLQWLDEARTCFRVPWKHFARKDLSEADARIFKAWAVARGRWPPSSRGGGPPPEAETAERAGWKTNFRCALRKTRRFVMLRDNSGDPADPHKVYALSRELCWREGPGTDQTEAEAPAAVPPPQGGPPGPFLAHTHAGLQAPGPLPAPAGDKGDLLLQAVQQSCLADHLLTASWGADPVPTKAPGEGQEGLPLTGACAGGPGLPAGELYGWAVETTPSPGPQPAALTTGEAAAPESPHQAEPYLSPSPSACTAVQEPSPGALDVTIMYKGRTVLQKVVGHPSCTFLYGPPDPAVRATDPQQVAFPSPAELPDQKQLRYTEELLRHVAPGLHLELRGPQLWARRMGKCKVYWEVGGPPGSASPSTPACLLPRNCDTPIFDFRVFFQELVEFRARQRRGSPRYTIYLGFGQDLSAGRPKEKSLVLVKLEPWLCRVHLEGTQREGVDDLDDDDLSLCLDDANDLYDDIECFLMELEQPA
Oligonucleotide | log fluorescence [z-score]
TTAGCACTGAGACTGGATTAGTGCTAG | -0.416
TTAGGTATCGGGTTCCGGTTAGTGCTA | 3.04
TTAGGTCTCCTTTCCCTTTAGTGCTAG | 1.69
TCAGGACTGGGGTATCGGTTAGTGCTA | -0.0609
ATCTCACTCTGTCCCTCTGTGTGCTAG | 0.576
TTAGGTTTCGGGTAGCGGTTAGTGCTA | 7.69
TTAGGTATCCTACTGATTTAGTGCTAG | -0.0863
GACGGTTTCCTACTGCAGACGTGCTAG | 1.67
GACGCTTTCGGTCTCGGGACGTGCTAG | 1.5
GACGAACTGAGGTATCGAGACGTGCTA | -0.309
GACGATATCGGGTATCGACACGTGCTA | -0.122
TCAGAACTGGGGACTGGATTAGTGCTA | -0.438
TCATCTCCCAGACTGGAACTGTGCTAG | 0.624
TTAGAACTGGGGATTGGATTAGTGCTA | -0.359
TTAGGTATCCTGATCCTTTAGTGCTAG | -0.308
GACGGTTTCGGTTCTGGGACGTGCTAG | 12.9
GATGATTCCAGTTTCGAGACGTGCTAG | 4.52
TTAGGTTTCGGTCTCGATTAGTGCTAG | 8.3
TAGTTGCAAGCCATGGGTGGGTGCTAG | -0.0878
TCAGAATTGAAAATTAGTACTGTGCTA | -0.157
AACTTGGCAGGAGCGAATGGGTGCTAG | -0.688
GACGATTTCAGACTGTAGACGTGCTAG | 0.244
CCAAGTTTATACCTTAGGTTGTGCTAG | 0.169
TCATGTATATATTTTAAACTGTGCTAG | 0.274

Series 4
Target: Sal-like protein 4, full length isoform A (SALL4, Homo sapiens, UniProt Q9UJQ4, residues 1-1053)
UniProt Q9UJQ4, sequence (whole entry, looked up): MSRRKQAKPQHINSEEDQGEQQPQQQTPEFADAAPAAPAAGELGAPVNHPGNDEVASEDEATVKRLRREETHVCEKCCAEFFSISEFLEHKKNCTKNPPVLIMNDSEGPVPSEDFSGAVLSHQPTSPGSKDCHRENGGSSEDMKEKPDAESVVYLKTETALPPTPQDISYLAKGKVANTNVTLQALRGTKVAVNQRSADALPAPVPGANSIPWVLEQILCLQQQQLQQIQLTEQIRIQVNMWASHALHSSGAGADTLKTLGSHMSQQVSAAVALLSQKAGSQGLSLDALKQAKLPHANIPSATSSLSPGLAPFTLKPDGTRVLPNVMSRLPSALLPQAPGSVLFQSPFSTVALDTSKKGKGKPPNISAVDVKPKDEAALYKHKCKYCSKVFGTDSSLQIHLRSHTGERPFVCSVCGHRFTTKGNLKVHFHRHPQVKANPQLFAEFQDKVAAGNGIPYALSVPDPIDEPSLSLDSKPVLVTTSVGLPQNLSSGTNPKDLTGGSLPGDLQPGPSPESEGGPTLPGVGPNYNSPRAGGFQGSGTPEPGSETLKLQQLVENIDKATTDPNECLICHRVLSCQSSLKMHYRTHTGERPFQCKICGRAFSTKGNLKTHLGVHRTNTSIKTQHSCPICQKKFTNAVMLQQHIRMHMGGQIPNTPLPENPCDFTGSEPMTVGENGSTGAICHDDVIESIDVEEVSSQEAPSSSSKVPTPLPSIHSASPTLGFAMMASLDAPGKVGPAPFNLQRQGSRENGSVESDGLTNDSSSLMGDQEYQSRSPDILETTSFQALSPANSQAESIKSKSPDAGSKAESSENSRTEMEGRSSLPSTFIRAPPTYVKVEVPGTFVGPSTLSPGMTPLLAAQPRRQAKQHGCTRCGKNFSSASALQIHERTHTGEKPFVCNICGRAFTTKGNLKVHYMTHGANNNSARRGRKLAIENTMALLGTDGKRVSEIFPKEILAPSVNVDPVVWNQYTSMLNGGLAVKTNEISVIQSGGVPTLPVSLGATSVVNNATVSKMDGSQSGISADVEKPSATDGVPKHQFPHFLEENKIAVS
Method: universal PBM
Form: double-stranded DNA, one strand shown
Matrix: in vitro
Tested at: 600 nM
Notes: 8-mer, flanks averaged, mean of replicates
Reading: higher = stronger binding
Oligonucleotide | E-score
ACACATCT | 0.145
ATTCACAC | 0.195
TGGATTAA | 0.249
ACCGGATC | -0.224
GGACAATA | 0.212
GCCGTTCA | -0.219
CGGATAAG | -0.106
CGTAATGC | 0.0724
CACACGTG | -0.0838
AACGCTGC | -0.103
CGGAGCTA | -0.18
TCGTACCA | 0.0182
ATAACGCA | 0.238
CATAAACA | 0.341
TGATAGCA | 0.146
CACAGTTC | -0.123
AATCAAGT | 0.159
CGAGGTAC | -0.215
ATGACTCG | 0.0464
ACATGATG | 0.147
AACTCTGT | 0.0159

Excerpt of the above (series 2):
Oligonucleotide | log2 enrichment
CUCAAGUCCUGUGCUACACAUCGUAUGUACCGAAUCGGGGAGGGAGGGGAGGGGAAAGUAUUAUGUUACGCCGUUCGGAUCUGCACUUCC | 2.62
CCUCAAGUCCUGUGCUACACAUCGUAUGUACCGAAUCGGGGUGGGGUGGUGGGAAAGUAUUAUGUUACGCCGUUCGGAUCUGCACUUCCA | 0.658
AAGUCCUGUGCUACACAUCGUAUGUACCGAAUCGGUUUUUGGAAAAAAAGGAAAGGAAAGUAUUAUGUUACGCCGUUCGGAUCUGCACUU | -2.21
UGGCCCUGGUGGCAUGCGGGGAGGAAGAUGUGGCCUCAUGGAUCGUGGUGGUCCCGGUGGAAUGUUCAGAGGUGGCCGUGGUGGAGACAG | 1.89
CUGUGCUACACAUCGUAUGUACCGAAUCGGGGUUUUUGGGGUUUUUUUGGGGAAAAAGGGGAAAGUAUUAUGUUACGCCGUUCGGAUCUG | -0.164
